# Measurements of several laboratories.
# Parts stem from different laboratories: compare values within a part only.
# UniProt Q32MK0, sequence (whole entry, looked up): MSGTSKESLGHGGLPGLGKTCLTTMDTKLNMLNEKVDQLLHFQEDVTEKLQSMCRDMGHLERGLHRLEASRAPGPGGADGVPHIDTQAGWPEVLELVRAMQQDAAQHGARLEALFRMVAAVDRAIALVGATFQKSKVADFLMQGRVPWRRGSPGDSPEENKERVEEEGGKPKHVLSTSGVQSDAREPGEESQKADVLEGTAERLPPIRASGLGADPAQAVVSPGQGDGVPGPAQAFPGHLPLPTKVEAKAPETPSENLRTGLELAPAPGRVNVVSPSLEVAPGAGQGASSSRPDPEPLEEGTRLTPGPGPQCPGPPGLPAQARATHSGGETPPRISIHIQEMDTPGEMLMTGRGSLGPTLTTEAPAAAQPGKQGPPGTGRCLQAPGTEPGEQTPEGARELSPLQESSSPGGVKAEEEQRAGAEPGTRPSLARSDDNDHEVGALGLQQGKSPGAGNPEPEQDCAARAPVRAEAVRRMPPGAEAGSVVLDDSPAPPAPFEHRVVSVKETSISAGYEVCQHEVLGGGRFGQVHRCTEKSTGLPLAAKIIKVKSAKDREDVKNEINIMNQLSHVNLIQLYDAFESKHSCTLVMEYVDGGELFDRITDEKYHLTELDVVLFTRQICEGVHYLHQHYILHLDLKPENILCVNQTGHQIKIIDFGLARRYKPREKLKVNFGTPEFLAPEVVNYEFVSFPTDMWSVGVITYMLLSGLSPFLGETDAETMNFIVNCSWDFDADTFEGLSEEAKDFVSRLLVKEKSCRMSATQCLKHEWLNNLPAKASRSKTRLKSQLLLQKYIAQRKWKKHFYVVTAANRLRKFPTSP
# UniProt P53350, sequence (whole entry, looked up): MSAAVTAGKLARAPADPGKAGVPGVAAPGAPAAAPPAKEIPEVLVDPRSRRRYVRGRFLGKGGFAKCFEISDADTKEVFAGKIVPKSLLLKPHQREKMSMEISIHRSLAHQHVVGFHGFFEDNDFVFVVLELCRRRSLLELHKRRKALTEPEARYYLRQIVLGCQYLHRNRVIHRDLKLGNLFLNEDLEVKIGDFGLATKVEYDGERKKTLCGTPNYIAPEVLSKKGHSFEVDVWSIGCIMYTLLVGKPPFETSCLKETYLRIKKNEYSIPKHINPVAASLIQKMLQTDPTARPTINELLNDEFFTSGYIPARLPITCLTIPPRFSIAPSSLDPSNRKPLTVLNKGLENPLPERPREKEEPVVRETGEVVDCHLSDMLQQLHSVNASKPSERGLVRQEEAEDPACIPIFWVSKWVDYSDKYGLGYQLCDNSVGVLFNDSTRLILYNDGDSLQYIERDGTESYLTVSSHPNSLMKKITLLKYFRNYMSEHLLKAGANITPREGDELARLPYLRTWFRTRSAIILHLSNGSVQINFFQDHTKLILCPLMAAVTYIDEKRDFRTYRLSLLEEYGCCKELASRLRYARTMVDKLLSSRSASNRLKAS
# UniProt P10721, sequence (whole entry, unmodified, looked up): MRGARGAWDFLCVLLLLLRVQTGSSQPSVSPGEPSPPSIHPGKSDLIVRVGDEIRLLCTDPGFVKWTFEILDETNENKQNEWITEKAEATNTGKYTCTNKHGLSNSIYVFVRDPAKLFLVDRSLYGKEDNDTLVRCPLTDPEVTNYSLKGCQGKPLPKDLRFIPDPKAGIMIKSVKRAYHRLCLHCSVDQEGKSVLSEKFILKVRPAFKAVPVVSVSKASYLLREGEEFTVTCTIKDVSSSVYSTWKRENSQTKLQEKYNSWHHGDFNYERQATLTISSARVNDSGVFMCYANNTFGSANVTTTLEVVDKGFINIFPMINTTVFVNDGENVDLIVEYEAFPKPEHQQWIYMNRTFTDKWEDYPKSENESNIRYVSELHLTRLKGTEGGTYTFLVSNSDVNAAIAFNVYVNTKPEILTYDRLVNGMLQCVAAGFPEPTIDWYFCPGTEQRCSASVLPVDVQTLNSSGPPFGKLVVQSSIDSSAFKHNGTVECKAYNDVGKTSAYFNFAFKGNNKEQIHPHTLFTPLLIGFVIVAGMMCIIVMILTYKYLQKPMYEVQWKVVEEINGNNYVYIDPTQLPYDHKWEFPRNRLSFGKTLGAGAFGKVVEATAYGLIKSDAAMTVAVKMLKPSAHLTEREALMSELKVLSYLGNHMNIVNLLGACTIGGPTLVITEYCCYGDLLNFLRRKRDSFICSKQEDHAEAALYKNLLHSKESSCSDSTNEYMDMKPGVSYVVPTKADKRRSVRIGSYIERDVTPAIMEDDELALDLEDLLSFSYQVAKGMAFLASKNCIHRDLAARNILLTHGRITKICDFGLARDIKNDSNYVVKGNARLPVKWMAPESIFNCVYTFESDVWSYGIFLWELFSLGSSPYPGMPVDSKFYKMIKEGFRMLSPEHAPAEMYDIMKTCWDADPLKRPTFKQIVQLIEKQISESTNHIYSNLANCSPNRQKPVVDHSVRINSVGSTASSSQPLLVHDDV
# UniProt Q6P2M8, sequence (whole entry, looked up): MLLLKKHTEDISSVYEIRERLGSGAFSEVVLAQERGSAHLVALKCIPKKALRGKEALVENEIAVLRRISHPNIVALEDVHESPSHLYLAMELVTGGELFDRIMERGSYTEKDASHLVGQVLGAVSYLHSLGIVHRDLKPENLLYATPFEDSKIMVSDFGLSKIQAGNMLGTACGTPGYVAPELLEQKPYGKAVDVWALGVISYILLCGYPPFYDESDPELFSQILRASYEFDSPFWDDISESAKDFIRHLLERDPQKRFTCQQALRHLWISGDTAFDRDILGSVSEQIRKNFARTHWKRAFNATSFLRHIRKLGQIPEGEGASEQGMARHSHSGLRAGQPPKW
# UniProt Q9H2K8, sequence (whole entry, looked up): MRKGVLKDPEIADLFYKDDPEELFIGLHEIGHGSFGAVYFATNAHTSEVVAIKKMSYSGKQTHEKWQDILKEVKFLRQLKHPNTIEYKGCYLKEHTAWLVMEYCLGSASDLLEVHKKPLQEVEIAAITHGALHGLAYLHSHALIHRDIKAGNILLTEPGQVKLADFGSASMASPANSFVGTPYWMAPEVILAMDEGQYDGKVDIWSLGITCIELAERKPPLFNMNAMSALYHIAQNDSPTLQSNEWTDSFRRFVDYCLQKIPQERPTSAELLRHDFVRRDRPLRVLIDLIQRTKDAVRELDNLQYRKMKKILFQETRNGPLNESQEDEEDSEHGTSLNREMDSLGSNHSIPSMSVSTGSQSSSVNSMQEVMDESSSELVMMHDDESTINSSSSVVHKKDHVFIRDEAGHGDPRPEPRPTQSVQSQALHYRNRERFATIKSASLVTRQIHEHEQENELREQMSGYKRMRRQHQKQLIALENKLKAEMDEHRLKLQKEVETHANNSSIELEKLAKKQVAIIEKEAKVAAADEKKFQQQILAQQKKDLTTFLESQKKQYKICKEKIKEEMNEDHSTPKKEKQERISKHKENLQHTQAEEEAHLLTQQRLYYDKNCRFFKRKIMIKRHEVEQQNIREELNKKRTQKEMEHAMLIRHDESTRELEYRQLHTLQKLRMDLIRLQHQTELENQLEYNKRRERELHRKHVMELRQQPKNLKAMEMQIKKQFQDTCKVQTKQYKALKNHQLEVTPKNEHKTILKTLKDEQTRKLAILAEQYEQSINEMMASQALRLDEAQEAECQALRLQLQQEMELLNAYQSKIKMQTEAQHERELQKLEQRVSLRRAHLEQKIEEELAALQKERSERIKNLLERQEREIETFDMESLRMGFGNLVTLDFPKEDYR
# UniProt P80192, sequence (whole entry, looked up): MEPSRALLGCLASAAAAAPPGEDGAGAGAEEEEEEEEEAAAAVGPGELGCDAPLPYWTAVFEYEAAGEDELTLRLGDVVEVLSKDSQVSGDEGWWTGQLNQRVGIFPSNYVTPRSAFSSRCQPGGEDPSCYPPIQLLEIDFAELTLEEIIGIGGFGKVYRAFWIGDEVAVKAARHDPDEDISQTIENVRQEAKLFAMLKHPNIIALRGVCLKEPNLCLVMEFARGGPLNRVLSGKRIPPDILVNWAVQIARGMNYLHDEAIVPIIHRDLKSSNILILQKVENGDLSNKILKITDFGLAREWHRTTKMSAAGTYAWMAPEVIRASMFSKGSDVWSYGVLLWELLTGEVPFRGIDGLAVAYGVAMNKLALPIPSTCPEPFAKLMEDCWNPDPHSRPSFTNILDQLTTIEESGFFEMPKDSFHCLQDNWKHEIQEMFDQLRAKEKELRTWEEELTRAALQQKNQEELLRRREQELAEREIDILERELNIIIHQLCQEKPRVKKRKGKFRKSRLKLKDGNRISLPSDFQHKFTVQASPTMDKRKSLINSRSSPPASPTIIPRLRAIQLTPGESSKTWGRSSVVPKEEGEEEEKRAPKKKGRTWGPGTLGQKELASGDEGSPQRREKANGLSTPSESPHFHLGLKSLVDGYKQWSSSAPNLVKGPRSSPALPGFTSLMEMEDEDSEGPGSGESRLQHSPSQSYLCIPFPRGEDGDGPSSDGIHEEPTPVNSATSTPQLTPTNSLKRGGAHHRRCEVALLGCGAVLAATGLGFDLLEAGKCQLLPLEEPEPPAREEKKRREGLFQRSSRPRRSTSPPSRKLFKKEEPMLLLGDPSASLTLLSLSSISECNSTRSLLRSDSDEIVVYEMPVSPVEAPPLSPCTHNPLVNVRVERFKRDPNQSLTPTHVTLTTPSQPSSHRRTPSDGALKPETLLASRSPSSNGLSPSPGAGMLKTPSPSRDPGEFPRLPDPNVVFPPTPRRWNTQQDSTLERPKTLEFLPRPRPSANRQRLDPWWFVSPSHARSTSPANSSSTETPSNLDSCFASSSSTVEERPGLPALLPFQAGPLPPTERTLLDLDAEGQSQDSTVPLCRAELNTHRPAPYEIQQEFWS
# UniProt Q9HC98, sequence (whole entry, looked up): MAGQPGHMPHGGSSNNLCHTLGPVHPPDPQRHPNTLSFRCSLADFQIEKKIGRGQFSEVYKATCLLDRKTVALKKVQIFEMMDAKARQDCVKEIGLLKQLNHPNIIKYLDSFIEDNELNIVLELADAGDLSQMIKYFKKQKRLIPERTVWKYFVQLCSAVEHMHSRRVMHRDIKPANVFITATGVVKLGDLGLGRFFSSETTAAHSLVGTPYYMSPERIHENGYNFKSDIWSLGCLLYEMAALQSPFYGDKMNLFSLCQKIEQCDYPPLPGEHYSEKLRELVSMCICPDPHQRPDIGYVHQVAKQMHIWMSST

# Study 1 — concentration: 1 µM
# SMILES: COc1ccc2[nH]c3c4[nH]c5ccc(OC)cc5c4c4c(c3c2c1)C(=O)NC4=O
target,test,conditions,scale,remaining binding [%]
"Serine/threonine-protein kinase Sgk2 (SGK2, Homo sapiens, UniProt Q9HBY8)",competitive binding panel,,reference: vehicle,46
"Cytoplasmic tyrosine-protein kinase BMX (BMX, Homo sapiens, UniProt P51813)",competitive binding panel,,reference: vehicle,99
"Serine/threonine-protein kinase Nek6 (NEK6, Homo sapiens, UniProt Q9HC98)",competitive binding panel,,reference: vehicle,87
"Myosin light chain kinase (MYLK3, Homo sapiens, UniProt Q32MK0)",competitive binding,MLCK,,16
"MAP kinase-interacting serine/threonine-protein kinase 2 (MKNK2, Homo sapiens, UniProt Q9HBH9)",competitive binding panel,,reference: vehicle,54
"Calcium/calmodulin-dependent protein kinase type 1B (PNCK, Homo sapiens, UniProt Q6P2M8)",competitive binding,CAMK1B,,78
"Wee1-like protein kinase (WEE1, Homo sapiens, UniProt P30291)",competitive binding panel,,reference: vehicle,53
"Mitogen-activated protein kinase kinase kinase kinase 3 (MAP4K3, Homo sapiens, UniProt Q8IVH8)",competitive binding panel,,reference: vehicle,73
"Serine/threonine-protein kinase PLK1 (PLK1, Homo sapiens, UniProt P53350)",competitive binding panel,,reference: vehicle,90

# Study 2 — effect on: cell-free assay; method: competition with immobilised ligand; concentration: 1 µM
# Compound: O=C(NCc1ncc(C(F)(F)F)cc1Cl)c1ccc2c(c1)C1(CCS(=O)(=O)CC1)[C@@H](C1CC1)N2S(=O)(=O)c1ccc(F)cc1
target,remaining binding [%]
"Serine/threonine-protein kinase PLK1 (PLK1, Homo sapiens, UniProt P53350)",82
"RAC-gamma serine/threonine-protein kinase (AKT3, Homo sapiens, UniProt Q9Y243)",86
"Epidermal growth factor receptor (EGFR, Homo sapiens, UniProt P00533, L861Q)",76
"Serine/threonine-protein kinase TAO3 (TAOK3, Homo sapiens, UniProt Q9H2K8)",80
"Mitogen-activated protein kinase kinase kinase 9 (MAP3K9, Homo sapiens, UniProt P80192)",77
"Mast/stem cell growth factor receptor Kit (KIT, Homo sapiens, UniProt P10721, V559D/V654A)",68
"Mitogen-activated protein kinase kinase kinase 2 (MAP3K2, Homo sapiens, UniProt Q9Y2U5)",88
"Myosin light chain kinase (MYLK3, Homo sapiens, UniProt Q32MK0)",76
"Tyrosine-protein kinase ABL1, phosphorylated (ABL1, Homo sapiens, UniProt P00519, H396P)",83

# Study 3 — cell line: Huh-7; concentration: 10 µM; time: 24 h
SMILES,viability
Cc1cc(=O)n(-c2ccccc2)n1C,95.3%
Clc1cccc(Cl)c1N=C1NCCN1,102%
Cc1cn[nH]c1,102%
C/C=C(/C(=C/C)c1ccc(O)cc1)c1ccc(O)cc1,95.8%
CC[C@@H](CO)NCCN[C@@H](CC)CO,98.6%
CCN1CCCC(OC(=O)C(c2ccccc2)c2ccccc2)C1 (stereo not drawn),100%
O=P(O)(O)C(O)(Cc1cccnc1)P(=O)(O)O,98.3%
Cc1nc2ccccn2c(=O)c1CCN1CCC(C(=O)c2ccc(F)cc2)CC1,96.3%
CCCCOc1ccc(OCCCN2CCOCC2)cc1,96.1%

# Study 4 — effect on: enzyme activity; action: inhibitor; concentration: 0.5 µM; reference: control
# Target: STE20/SPS1-related proline-alanine-rich protein kinase (STK39, Homo sapiens, UniProt Q9UEW8)
SMILES,remaining activity [%]
CNC(=O)c1cc(Oc2ccc(NC(=O)Nc3ccc(Cl)c(C(F)(F)F)c3)cc2)ccn1,95.7
COc1cc2ncnc(Nc3ccc(F)c(Cl)c3)c2cc1OCCCN1CCOCC1,93.5
Oc1ccc(-c2nc(-c3ccncc3)c(-c3ccc(F)cc3)[nH]2)cc1,94.8
Cc1nc(-c2ccccc2)c(-c2ccncc2)o1,97.1
COc1ccc(C(=O)Nc2sc3c(c2C(N)=O)CCCC3)cc1OC,101
Nc1ccc2ncnc(NCCc3ccc(Oc4ccccc4)cc3)c2c1,83.9
Nc1[nH]nc2nc3ccccc3nc12,116
O=C1NC(=O)C(c2cn(CCCO)c3ncccc23)=C1c1cnccn1,111
O=C1NC(=O)C(c2cn(CCCn3ccnc3)c3ccccc23)=C1Nc1ccccc1,99.2
O=C(CCCc1ccc(-c2ccccc2F)cc1)Nc1ccc(O)cc1,95.4
CN(C)c1ccc(C=C2C(=O)Nc3ccccc32)cc1,96.6
COc1ccc(CNC(=O)Nc2ncc([N+](=O)[O-])s2)cc1,96.4
N#CC(C#N)=C(N)/C(C#N)=C/c1ccc(O)cc1,90.3
NCCNc1ncc(C(N)=O)c(Nc2cccc(C(F)(F)F)c2)n1,83.9
O=S(=O)(c1cccc2cnccc12)N1CCCNCC1,103

# Repeated from above (study 2):
target,remaining binding [%]
"Serine/threonine-protein kinase PLK1 (PLK1, Homo sapiens, UniProt P53350)",82
"RAC-gamma serine/threonine-protein kinase (AKT3, Homo sapiens, UniProt Q9Y243)",86
"Epidermal growth factor receptor (EGFR, Homo sapiens, UniProt P00533, L861Q)",76
